# Published values from different studies.
# Protocols differ between the studies behind these lines. Numbers after ± are the reported error.
# Organism: Plasmodium falciparum
SMILES,assay,test system,setting,how to read,measurement,value
c1cc([C@H]2CC[C@]3(CC2)OO[C@]2(O3)C3CC4CC(C3)CC2C4)ccc1OCCN1CCOCC1,,"human patients, malaria","oral, 800 mg",,lag phase duration,6 h
COc1ccc(NC(=O)CCNc2cc(C)nc(NCCc3ccc(F)cc3)n2)cc1.O=C(O)C(F)(F)F,"parasite growth, SYBR Green",,72 h,baseline: 3D7-E182D over 3D7,EC50 ratio,1.4
CCc1nnc(-c2ccc3ccn(CC(=O)Nc4cc(OC)c(OC)c(OC)c4)c3c2)o1,,PfATP4 G358S line,"3 × EC50, day 14, barcoded pool",,barcode proportion,97%
Oc1ccc2c3c1O[C@H]1c4[nH]c5c(c4C[C@@]4(O)[C@@H](C2)N(CC2CC2)CC[C@]314)C[C@@]1(O)[C@H]2Cc3ccc(O)c4c3[C@@]1(CCN2CC1CC1)[C@H]5O4,"growth, SYBR green",FVO,"concentration not given, 36 h",,activity,active
CCC(c1ccccc1)c1nn2c(-c3cccs3)nnc2s1 (stereo not drawn),"parasite growth, SYBR Green",3D7 DHODH E182D,72 h,,EC50,0.333 ± 0.049 µM
Nc1nccc2c1ncn2[C@@H]1O[C@H](CO)[C@@H](O)[C@H]1O,,GB4,,,IC50,5.01 µM
COc1ccc(-c2ccc(CNC(=O)c3cc(C(=O)NC(C)C)ccc3Cl)cc2)cn1,,PSAC-resistant lines,concentration not given,baseline: parental 3D7A,sorbitol lysis protection,decreased
CCCNC(=O)c1ccnc(-c2ccc(CNC3Cc4ccccc4C3)cc2)c1.O=C(O)C(F)(F)F.O=C(O)C(F)(F)F,"parasite growth, SYBR Green",,72 h,baseline: 3D7-E182D over 3D7,EC50 ratio,1.4
CCN(CC)CCCC(C)Nc1ccnc2cc(Cl)ccc12 (stereo not drawn),"growth, [3H]-hypoxanthine uptake",Dd2,48 h,baseline: Dd2 IC50 over 3D7 IC50,resistance index,2.9
COc1ccccc1N1CCN(CCCCNC(=O)c2ccc3ccccc3c2)CC1,,W2,,,IC50,2.51 µM
O=C(CNCC1CCCCC1)Nc1cc(C(F)(F)F)ccc1Cl,"parasite growth, SYBR Green",3D7 DHODH E182D,72 h,,EC50,4.1 ± 0.58 µM
OCCN1CCN(CC/C=C2/c3ccccc3Sc3ccc(C(F)(F)F)cc32)CC1,,GB4,,,IC50,2 µM
Clc1cccc(C(c2ccc3[nH]cnc3c2)n2ccnc2)c1 (stereo not drawn),,"FVO, purified merozoites, erythrocytes",25 µM,,merozoite invasion,64%
Cc1cc(Nc2ccc(C(C)(C)C)cc2)c2[nH]ncc2n1,"parasite growth, SYBR Green",3D7 wild type,72 h,,EC50,0.496 ± 0.19 µM
CC(=O)c1c(O)c(C)c(O)c2c1OC1=CC(=O)C(=C(C)NCCCC(=O)O)C(=O)C12C (stereo not drawn),[3H]hypoxanthine incorporation,"K1, erythrocytic stages",concentration not given,,antiplasmodial activity,inactive
CCOC(=O)N1CCC(=C2c3ccc(Cl)cc3CCc3cccnc32)CC1,,GB4,,,IC50,10 µM
O=C(CN1CCN(C(=O)c2ccco2)CC1)Nc1ccccc1Br,parasite growth,Dd2,,,EC50,0.154 ± 0.019 µM
COCC(=O)O[C@]1(CCN(C)CCCc2nc3ccccc3[nH]2)CCc2cc(F)ccc2[C@@H]1C(C)C,,D10,,,IC50,7.94 µM
Cc1ccc(N(C)c2ccc(NC(=O)CN(C)c3cccnc3N3CCCC3=O)cc2)cc1,"parasite growth, LDH","3D7 population D, CSC1 L954F",72 h,,EC50,0.252 µM
Cc1scc2c1N(C(=O)CN1CCN(C)CC1)c1ccccc1NC2=O,,HB3,,,IC50,3.98 µM
CCc1nc2nc(C)cc(Nc3ccc4c(c3)OCCO4)n2n1,"parasite growth, SYBR Green",3D7 wild type,72 h,,EC50,0.61 ± 0.14 µM
O=C(Cc1ccc(Cl)c(Cl)c1)N1CCCCC1CN1CCCC1 (stereo not drawn),,Dd2,,,IC50,10 µM
Cc1nc(-c2ccc(OCC(C)C)c(C#N)c2)sc1C(=O)O,,"FVO, purified merozoites, erythrocytes",50 µM,,merozoite invasion,100%
Cc1cccc(C(=O)N2CCN(Cc3cccc(NC(=O)c4ccco4)c3)CC2)c1,"parasite growth, SYBR Green",3D7 DHODH E182D,72 h,,EC50,1.32 ± 0.11 µM
Cn1cc(-c2ccc3ccn(CC(=O)Nc4ccccc4Cl)c3c2)cn1,,Dd2 PfATP4 D425E,72 h,baseline: mutant over parental,EC50 fold shift,2 fold
CCNC(=O)N1CCN(CCCC(c2ccc(F)cc2)c2ccc(F)cc2)CC1,,HB3,,,IC50,0.794 µM
CC(C)C[C@H](NC(=O)[C@H](Cc1c[nH]c2ccccc12)NC(=O)CN1CCOCC1)C(=O)N[C@H](/C=C/S(C)(=O)=O)Cc1c[nH]c2ccccc12,,Dd2 β5 S27F resistant,,,EC50,0.0067 ± 0.0014 µM

# Some of these lines once more:
SMILES,assay,test system,setting,how to read,measurement,value
Clc1cccc(C(c2ccc3[nH]cnc3c2)n2ccnc2)c1 (stereo not drawn),,"FVO, purified merozoites, erythrocytes",25 µM,,merozoite invasion,64%
CC(=O)c1c(O)c(C)c(O)c2c1OC1=CC(=O)C(=C(C)NCCCC(=O)O)C(=O)C12C (stereo not drawn),[3H]hypoxanthine incorporation,"K1, erythrocytic stages",concentration not given,,antiplasmodial activity,inactive
O=C(CN1CCN(C(=O)c2ccco2)CC1)Nc1ccccc1Br,parasite growth,Dd2,,,EC50,0.154 ± 0.019 µM
